Published values pooled from the literature.
Numbered parts are unrelated; each lists some results of a single study. Changes are numbered by the printed parent chain.

Series 1
Target: Phosphate system positive regulatory protein PHO4, full length, GST-tagged (PHO4, Saccharomyces cerevisiae, UniProt P07270, residues 1-312)
Technique: competition protein-binding microarray
Molecule type: double-stranded DNA, one strand shown
Sample: in vitro
Concentration: 2 µM
Notes: whole 60-bp probe, lowest competitor level
Added: Cbf1 competitor, 0.05 µM
Reading: higher = stronger binding
Residues (chain): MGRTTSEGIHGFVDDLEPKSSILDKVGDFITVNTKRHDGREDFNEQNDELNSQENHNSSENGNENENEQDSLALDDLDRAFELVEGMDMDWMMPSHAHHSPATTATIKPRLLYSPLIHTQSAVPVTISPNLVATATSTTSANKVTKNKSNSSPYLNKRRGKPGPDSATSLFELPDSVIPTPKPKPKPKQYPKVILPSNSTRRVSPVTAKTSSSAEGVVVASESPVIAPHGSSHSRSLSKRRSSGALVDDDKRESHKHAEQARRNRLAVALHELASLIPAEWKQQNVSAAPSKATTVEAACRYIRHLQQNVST
For `CCGTAGGGACTTTTGCACGTTATTATGGGAATATCAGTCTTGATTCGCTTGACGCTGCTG`, the fluorescence intensity was 7810 a.u.
With `CGGGGTTAAGTTTGATTTGTGGGTGGCTTGCAGCAGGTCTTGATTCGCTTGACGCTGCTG` the fluorescence intensity was 3850 a.u.
`CGCTTATTTGTAGAGTTTGTAGTTTTTAAGCGTTCTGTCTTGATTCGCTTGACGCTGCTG` gave a fluorescence intensity of 2930 a.u.
The fluorescence intensity of `CAATAGCAGCGGCGGCATGATCTTGAGTCGAATAGAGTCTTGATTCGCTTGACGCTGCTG` is reported as 5350 a.u.
With `GGATCAACAAAATGGGGCGTGATGGAGAAAAAAAGTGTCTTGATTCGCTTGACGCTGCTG` the fluorescence intensity was 9500 a.u.
With `CGCTTGCCTTTAATCCTCGTGCCGATCCACAAAATCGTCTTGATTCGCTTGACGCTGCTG` the fluorescence intensity was 9550 a.u.
For `CCGAAGCAAATGATGGCCGTGACGGCAGCACAATAGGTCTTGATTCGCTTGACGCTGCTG`, the fluorescence intensity was 5710 a.u.
For `CATCGGCTCAACTTGATCATGCAATTAGCAAGCAACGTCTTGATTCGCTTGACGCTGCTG`, the fluorescence intensity was 4040 a.u.
`TCTCGAAACAATTGCAATGTGACGGTCTTGTTAGGCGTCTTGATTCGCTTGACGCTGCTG` gave a fluorescence intensity of 4390 a.u.
The fluorescence intensity of `AACGCCATGGCCTGTCACCTGATGCATTTATTCAACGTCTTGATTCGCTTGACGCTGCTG` is reported as 5570 a.u.
`CGCAGTCAGCGAGCCCACGTGCTTGTGTTGACTGGAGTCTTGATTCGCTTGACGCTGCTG` has a fluorescence intensity of 17200 a.u.
The fluorescence intensity of `CTTTCCCGATCTTGCAGTGTGGGTGTAGCACATTTGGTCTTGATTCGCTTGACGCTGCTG` is reported as 5390 a.u.
With `CTTCTGTAAATTTGCTACGTGGGTGGACGCGCCCCGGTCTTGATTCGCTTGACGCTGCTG` the fluorescence intensity was 7640 a.u.
With `ATCAGGCATTCATTGACCGTGCCGAACAAACCAAGCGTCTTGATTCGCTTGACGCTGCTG` the fluorescence intensity was 6400 a.u.

Series 2
Target: Histone acetyltransferase KAT6A, both winged helices, GST fusion (KAT6A, Homo sapiens, UniProt Q92794, residues 1-181)
Technique: protein binding microarray
Molecule type: double-stranded DNA, one strand shown
Sample: in vitro
Concentration: not given
Notes: 8-mer, flanks averaged, mean of 2 arrays, mostly near background
Baseline: not given
Reading: higher = stronger binding
Residues (chain): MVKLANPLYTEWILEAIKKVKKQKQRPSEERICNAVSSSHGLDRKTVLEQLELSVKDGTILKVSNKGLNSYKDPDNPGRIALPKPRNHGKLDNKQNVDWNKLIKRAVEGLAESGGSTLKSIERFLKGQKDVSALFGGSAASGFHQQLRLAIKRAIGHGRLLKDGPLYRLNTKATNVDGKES
`AACTCACT` has an E-score of -0.172.
The E-score of `ACTTATTC` is reported as -0.0973.
With `ATTAGCAA` the E-score was -0.054.
With `GAGGGATA` the E-score was -0.142.
For `CATGGGGA`, the E-score was -0.115.
With `CGTCTGCA` the E-score was 0.0202.
`CAGTCTCA` gave an E-score of -0.154.
`CCTGGACC` has an E-score of -0.169.
`AGATAGAG` gave an E-score of -0.245.
For `CACCTCTG`, the E-score was -0.258.
The E-score of `CGACCTTA` is reported as 0.0599.
The E-score of `AGCCGCCC` is reported as 0.174.
With `CAGCATTA` the E-score was -0.147.
With `GTCAGCTA` the E-score was 0.0295.
`CACGGTTC` has an E-score of -0.0837.
The E-score of `CCCTTGCA` is reported as -0.176.
For `ATCGCCAA`, the E-score was 0.0544.
With `AAAGGTAG` the E-score was -0.111.
With `GACGCAGA` the E-score was 0.202.
With `AATGGACT` the E-score was -0.252.
With `CACTGTAA` the E-score was -0.0941.
`GGGCGACA` has an E-score of 0.182.
The E-score of `GGTACCGA` is reported as 0.0193.
`TCACGGAA` has an E-score of 0.311.

Series 3
Target: RNA binding protein fox-1 homolog 2, RRM domain, GST-SBP tag (RBFOX2, Homo sapiens, UniProt O43251-10, residues 100-194)
Technique: RNA Bind-n-Seq
Molecule type: RNA
Sample: in vitro
Concentration: 365 nM
Notes: natural RNA segment, single round, ends assumed
Baseline: no-protein control
Reading: higher = stronger binding
Target sequence (chain): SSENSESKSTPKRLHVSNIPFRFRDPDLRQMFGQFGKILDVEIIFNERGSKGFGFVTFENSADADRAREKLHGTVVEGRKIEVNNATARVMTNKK
Under “RBNS enrichment (R)”, `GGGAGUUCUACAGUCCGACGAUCUCAGGUUGGGCGGGGCCGGUUCUAAACGCUCCAAGGGUCAACUCUGUUUCUUGCCUAGCAAACGAAGCUUUGCCCGCACAGCCUUGACUCGCGGCCCCAGGGCGGAGCCCUGGAAUUCUCGGGUGCCAA` is recorded as 0.249.
`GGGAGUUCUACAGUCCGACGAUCGUUUUGUUUUCAAAGUGCUUACAAUGCAUGUAGACAUUGUUCUUUGUGGUCUGACUCUAUGAUCGAUCACAGUGACUUAGAUUCAGGAAAGAACAUUAACGUCACAAGUUUGGAAUUCUCGGGUGCCAA`: “RBNS enrichment (R)” 0.507.
`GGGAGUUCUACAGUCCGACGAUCUGCCAAAACAUUUGGGCAUUGUGCCCACCACCUGCCCACACAUAGGAAGUCCACUUCAGUAAGUGCAAGGCGCUAGCACCCAUCGAGGUAGAGGACAUUGCUUUAAGCCCUGGAAUUCUCGGGUGCCAA` — result for “RBNS enrichment (R)”: 0.26.
`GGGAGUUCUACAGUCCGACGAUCUGGGUUCUCCCAGUUACGGAAACCUUUUAAAGAUCCACAUUAGCCUUUUAGAAUAAAGCUGCUACUUUAACAGAGCACCUGGCGUGGGCCAAGUGCCUGAUACUCCCUUAUGGAAUUCUCGGGUGCCAA` — result for “RBNS enrichment (R)”: 0.529.
Under “RBNS enrichment (R)”, `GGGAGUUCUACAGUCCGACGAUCAUAUAGUGUGUGUACAUCUUUCGAUGAUAUAAAUUUAUUUGGGCGUGACUGUUUUAAAACACCAUAAUGAAUGUAUAAUUAAUUUAUGUUCAAGUAUUAAUAUUGUUACAUGGAAUUCUCGGGUGCCAA` is recorded as 0.79.
Under “RBNS enrichment (R)”, `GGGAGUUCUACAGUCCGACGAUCGCAGAGGGAUACUUGAGUAAGGUUGGGUGGUUAAACCCCAAGCAUCCUACUGGAGUGUCUGUCCAGGGAGAAGCCAAGGGGAGCAUCAGAAGGAGCCACUGGAGCCAGAGUGGAAUUCUCGGGUGCCAA` is recorded as 0.959.
`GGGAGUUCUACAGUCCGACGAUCGCUAUGCUCUAACGAUCACCUCAGUUCUCCCUCGGAUUCUGGGAACAGAUGAAACUUUUUGCAUCGCUUGAGUCAUUUUUAUCACAAUAAUCCUACUGUGAAGCUGUCGUUGGAAUUCUCGGGUGCCAA`: “RBNS enrichment (R)” 0.74.
Under “RBNS enrichment (R)”, `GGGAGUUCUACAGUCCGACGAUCUGGUCUGGCCCCUCUUCAAGCCAUAUGUCUUAGAGGCCCUCAUAGUGCUCUCCCCUAAGUUGGGUGCUAAGAGCUUUUGUCAGUGAGGGGCCUCUGUCAUUGUCUCAAAGUGGAAUUCUCGGGUGCCAA` is recorded as 0.399.

Series 4
Target: CCND1, cyclin fold, Cln2 fusion (human)
Technique: yeast growth competition, sequencing
Sample: yeast
Notes: weak parent motif
Baseline: not given
Reading: higher = stronger binding
Starting sequence: ORC1 docking peptide (human); PRARKRLELGNLG; partner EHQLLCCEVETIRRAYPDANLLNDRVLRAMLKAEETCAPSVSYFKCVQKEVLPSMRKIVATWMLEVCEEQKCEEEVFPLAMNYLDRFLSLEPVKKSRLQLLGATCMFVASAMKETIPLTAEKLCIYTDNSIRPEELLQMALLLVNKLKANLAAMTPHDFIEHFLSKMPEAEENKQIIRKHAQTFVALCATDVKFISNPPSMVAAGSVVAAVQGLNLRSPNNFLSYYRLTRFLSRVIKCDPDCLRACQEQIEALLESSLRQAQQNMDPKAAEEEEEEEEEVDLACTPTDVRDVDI
Under “normalised enrichment score”, `PRARKRLEMGNLG [L9M]` is recorded as 0.25.
`PRARKRNELGNLG [L7N]` — result for “normalised enrichment score”: -0.369.
For `PRARKQLELGNLG [R6Q]`, “normalised enrichment score” read -0.315.
Under “normalised enrichment score”, `PRARKRLELGNLK [G13K]` is recorded as -0.00109.
For `PHARKRLELGNLG [R2H]`, “normalised enrichment score” read -0.209.
Under “normalised enrichment score”, `FRARKRLELGNLG [P1F]` is recorded as -0.57.
`PRAQKRLELGNLG [R4Q]`: “normalised enrichment score” -0.169.
For `PRARKRLCLGNLG [E8C]`, “normalised enrichment score” read -0.35.
Under “normalised enrichment score”, `PRARKRLELKNLG [G10K]` is recorded as -0.267.
For `PRARERLELGNLG [K5E]`, “normalised enrichment score” read -0.0156.
For `PRTRKRLELGNLG [A3T]`, “normalised enrichment score” read 0.317.
For `PRARKRLEHGNLG [L9H]`, “normalised enrichment score” read -0.00333.
`PRARKRLELGNIG [L12I]`: “normalised enrichment score” -0.409.
`PRARKRVELGNLG [L7V]`: “normalised enrichment score” -0.735.
